Experimental data from different studies.
Protocols differ between the studies behind these lines. “And” joins repeats or separate records; there may be more than shown. ± marks the error that the study gave.

For `CO[C@H]1C[C@@H]2CC[C@@H](C)[C@@](O)(O2)C(=O)C(=O)N2CCCC[C@H]2C(=O)O[C@H]([C@H](C)C[C@@H]2CC[C@@H](OC(=O)NCCOCCOCCOCCOCCOCCOCCOCCOCCC(=O)N3CCc4cc(Cn5nc(-c6ccc7oc(N)nc7c6)c6c(N)ncnc65)ccc4C3)[C@H](OC)C2)C[C@@H](O)[C@H](C)/C=C(\C)[C@@H](O)[C@@H](OC)C(=O)[C@H](C)C[C@H](C)/C=C/C=C/C=C/1C`, “duration of response” read over 6 months (RECIST v1.1; human; dose not given).
The inhibition of `CNCc1cc(-c2ccccc2F)n(S(=O)(=O)c2cccnc2)c1` is reported as 48.1% (histamine-stimulated acid secretion; pylorus-ligated rat; oral, 2 mg/kg, added: histamine).
Under “best overall response NE”, `Cc1cc(C)c(CNC(=O)c2cc(Cl)c3c(c2C)O[C@@](C)([C@H]2CC[C@H](N(C)C)CC2)O3)c(=O)[nH]1` is recorded as 0% (relapsed/refractory NHL patients, PTCL; oral, dose not given).
For `CO[C@H]1CC[C@H](N2C(=O)CNc3ncc(-c4ccc(C(C)(C)O)nc4)nc32)CC1`, “pS6RP change from baseline” read -74.8% (flow cytometry; stimulated B cells, human, blood; 45 mg single dose, 3 h, mean; relative to: baseline).
The CR of `CCN1CCN(Cc2ccc(Nc3ncc(F)c(-c4cc(F)c5nc6n(c5c4)[C@H](C)CCC6)n3)nc2)CC1` is reported as 0% (RECIST v1.1; advanced solid tumour patients; dose not given, Phase Ia monotherapy).
`COc1cc(Nc2ncc3c(n2)-c2ccc(Cl)cc2C(c2c(F)cccc2OC)=NC3)ccc1C(=O)O`: “median response score” 2 (female NOD/scid mice, ALL-2 B-precursor ALL xenograft; 2.6 mg/kg, 5 days weekly, score scale 0 to 10; direction not given).
The AUC(0-t) of `CN(C(=O)n1cnc(-c2ccc[n+]([O-])c2)c1)C1CCCCC1` is reported as 575 ng·h/mL (refers to: OEA; human, plasma; 2.5 mg single dose).
`CC1(C)CCC(CN2CCN(c3ccc(C(=O)NS(=O)(=O)c4ccc(NCC5CCOCC5)c([N+](=O)[O-])c4)c(Oc4cnc5[nH]ccc5c4)c3)CC2)=C(c2ccc(Cl)cc2)C1` gave an EC50 of 873 nM (cell killing, flow cytometry PI exclusion; canine blood CD21+ B cells, dog 39; 24 h).
`N#Cc1ccc2c(c1)[C@H]1CCCN(C(=O)c3ccc4[nH]cnc4c3)[C@H]1C2` has a plasma level of 11.6 pmol/L (refers to: ACTH; human, Phase II trial; oral, 20 mg once daily, last treatment, HPA axis, mean).
`O=C1CCc2ccc(OCCCCN3CCN(c4cccc(Cl)c4Cl)CC3)cc2N1` — result for “discontinuation or switching rate”: 22% (patients; dose not given, 3 months, CYP2D6 IM and NM).
With `COc1cc(O)c(CC=C(C)C)c(O)c1C(=O)/C=C/c1ccc(O)cc1` the blood glucose was 133 mg/dL (glucose tolerance test; male Tac:SW conventional mice, high-fat diet; in diet, 60 mg/kg/day, 10 weeks, baseline).
`N#Cc1ccc2c(c1)[C@H]1CCCN(C(=O)c3ccc4[nH]cnc4c3)[C@H]1C2`: “total urinary corticosteroids” 76.6 % change (human, urine; 80 mg, 24 h, day 1 over day -1; relative to: placebo and baseline).
Under “fractional hepatic DNL”, `COc1ccccc1[C@H](Cn1c(=O)n(C(C)(C)C(=O)O)c(=O)c2c(C)c(-c3ncco3)sc21)OC1CCOCC1` is recorded as 8.08 % new palmitate ([1-13C]acetate infusion, isotopomer analysis; overweight or obese healthy men, plasma VLDL-TG palmitate; oral, 20 mg single dose, 3 h post-dose, added: oral fructose).
For `COc1cc([C@H]2OC[C@H]3[C@@H]2CO[C@@H]3c2cc(OC)c(O)c(OC)c2)cc(OC)c1O`, the lipid accumulation was 98.5 ± 10.3% (Oil Red O; 3T3-L1, mouse; 5 µM, day 8; relative to: vehicle).
Under “percent change in level”, `CCOc1c([C@H](C)n2nc(C)c3c(N)ncnc32)cc(Cl)c(F)c1[C@@H]1CNC(=O)C1` is recorded as 181% (Olink proximity extension, refers to: PPY; human FL or MZL patients, plasma; dose not given, week 8 day 1, once-daily dosing; relative to: baseline).
With `Cc1noc(C)c1-c1cc(C(O)(c2ccccn2)c2ccccn2)c2nc(C3CC3)[nH]c2c1` the maximum induction was 22.6% (refers to: HEXIM1 expression; human, peripheral blood; 1.4 mg, day 1, 1599 study).
Under PPAR-gamma expression, `CCc1c(C)nc(-c2ccc(Cl)s2)nc1Nc1ccc(CC(=O)O)cc1` is recorded as “decreased” (C57BL/6J mouse, high-fat diet MASH model, liver; intraperitoneal, 0.3 mg/kg daily, 60% fat diet for 12 weeks, dosed final four weeks; relative to: untreated).
`C=CCn1c(=O)c2cnc(Nc3ccc(N4CCN(C)CC4)cc3)nc2n1-c1ccc2c(n1)[C@@](O)(CC)CC2` — result for “tumour volume difference”: 929 ± 35.4 mm3 (SW1573 xenograft, NOD/SCID mice; oral, 80 mg/kg, day 28, once daily intermittent cycles).
`NC(=O)c1cnc2[nH]ccc2c1N[C@@H]1[C@@H]2CC3C[C@H]1C[C@@](O)(C3)C2` — result for “change from baseline”: 0.05% (flow cytometry, refers to: CD4+ effector memory T cells; Japanese healthy subjects, peripheral blood; oral, 30 mg twice daily, day 7).
For `CN[C@@H](C)C(=O)N[C@H]1CN(S(=O)(=O)c2cccc(S(=O)(=O)N3CC[C@H]4CC[C@@H](C(=O)NC(c5ccccc5)c5ccccc5)N4C(=O)[C@@H](NC(=O)[C@H](C)NC)C3)c2)CC[C@H]2CC[C@@H](C(=O)NC(c3ccccc3)c3ccccc3)N2C1=O`, “best response progressive disease” read 50% (RECIST 1.1; advanced pancreatic cancer patients; dose not given, prior therapy, added: AG).
For `COc1ccc(F)cc1C(=O)NCc1ccc(-c2nn([C@@H](C)C(F)(F)F)c(N)c2C(N)=O)cc1`, “best overall response CR” read 2% (relapsed/refractory CLL patients; dose not given, patients with longitudinal samples).
For `C[C@H](Oc1ccc(Br)cc1-c1ccon1)C(=O)O`, “difference from placebo” read -0.545% (muscle velocity recovery cycle; human, tibialis anterior muscle; 600 mg once daily, first response latency at 30 Hz, multiple ascending dose).
Under “patients with IPA above 80%”, `CSCCNc1nc(SCCC(F)(F)F)nc2c1ncn2[C@@H]1O[C@H](COP(=O)(O)OP(=O)(O)C(Cl)(Cl)P(=O)(O)O)[C@@H](O)[C@H]1O` is recorded as 5% (light transmittance aggregometry; human patients, platelet-rich plasma; dose not given, 15 min, added: ADP 20 µM; relative to: patients).
`Cc1ccc([C@@H]2O[C@H](CO)[C@@H](O)[C@H](O)[C@H]2O)cc1Cc1ccc(-c2ccc(F)cc2)s1` — result for “change in 24-h mean serum insulin”: -0.7 µU/mL (Japanese type 2 diabetes patients; 200 mg, day 16; relative to: day 0).
For `OC(CCN1CCCCC1)(c1ccccc1)C1CC2C=CC1C2` (centres unmarked), “power, EEG, Alpha, O2-Pz” read 18.3 µV² (resting-state EEG; healthy elderly humans; oral, 4 mg, eyes closed, LS mean).
`Cc1cc(C)c(CNC(=O)c2cc(Cl)c3c(c2C)O[C@@](C)([C@H]2CC[C@H](N(C)C)CC2)O3)c(=O)[nH]1`: “best response not assessed” 9% (IWG criteria; relapsed/refractory PTCL patients; dose not given).
Under “mechanical withdrawal threshold”, `CN(C)S(=O)(=O)CCNCc1cccc2ncccc12` is recorded as “no effect” (von Frey test; mouse, spared nerve injury model; intrathecal, dose not given, 30 min, ipsilateral paw, 20% ethanol vehicle; relative to: vehicle).
Under “normalized enrichment score”, `COc1cc(-c2ccccc2)ncc1C(=O)Nc1ccc2c(=O)[nH]c(-c3ccc(C(C)(C)O)cc3)nc2c1` is recorded as -1 (RNA-seq GSEA, refers to: HALLMARK_MYC_TARGETS_V1; organoids, small intestinal, Apc Q1405X, mouse; dose not given, wild-type organoids; relative to: DMSO, direction not given).
Under “forelimb grip strength”, `COc1ccc2c(c1)CN(Cc1ccc(C(=O)O)cc1)CCS2` is recorded as 0.16 ± 0.005 kgf (exercised mdx mice; 10 mg/kg, 1 weeks).
Under “pathway activation z-score”, `Cn1cc(Nc2nccc(-c3ccc4c(c3)CN(C3COC3)CC[C@H]4NC(=O)c3cn(C(C)(C)C)nn3)n2)cn1` is recorded as 1.41 (refers to: PPARα/RXRα Activation; splenic B cells, mouse; in vivo, 30 mg/kg, IgD-activated B cells; relative to: vehicle, positive = activation).
`Cn1cc([C@H]2C[C@H]3CSC(N)=N[C@@]3(c3ccc(F)cc3F)CO2)cn1` has an Aβ42 level of 0.31 ng/g (refers to: Aβx-42; Mus musculus wild-type, brain; subcutaneous, 50 mg/kg, 9 h).
The inhibition of `CN[C@@H]1COc2c(S(=O)(=O)NC(=O)Nc3c4c(cc5c3CCC5)CCC4)cnn2C1` is reported as 99.9% (refers to: IL-1β; human participants, whole blood ex vivo; 900 mg twice daily, multiple doses, 145 h, added: LPS/ATP; relative to: baseline).
For `O=C(O)CNC(=O)Cc1ccccc1`, the sarcomere length was 1.72 µm (ventricular cardiomyocytes, C57BL/6 mouse; dose not given, 0.328 s).
For `N#Cc1ccc2c(-c3ccncc3)c(-c3ccc(F)cc3)nn2c1`, “log2 fold change” read 0.122 (kinase binding, competitor, MIB/MS competition, refers to: PKH2; Candida albicans cell lysate; 10 µM; relative to: DMSO).
For `C[C@@H](NC(=O)N1C(=O)[C@H](Cc2ccnc(N)c2)[C@H]1C(=O)O)C1CCCCC1`, “time to ACT Emax” read 24 h (human; iv infusion, 2.25 mg/kg/h, 24 h; relative to: baseline).
`NCC(=O)Nc1cncc(-c2nn3c(=O)cc(N4CCNCC4)nc3s2)c1` gave an inhibition of 2.7% (ADP-induced platelet aggregation, light transmission aggregometry; human, stable CAD on aspirin, platelets ex vivo; subcutaneous, 0.075 mg/kg, 180 min post-dose, added: ADP 20 µM).
`C=CC(=O)N1CCC(c2ccc(C(N)=O)c(-c3ccc(Oc4ccccc4)cc3)n2)CC1` gave a CR of 24.5% (tumour response, Lugano classification; patients with relapsed/refractory MCL; dose not given, independent review, 16.4 months follow-up).
Under pSTAT3 level, `C[C@@H]1CCN(C(=O)CC#N)C[C@@H]1N(C)c1ncnc2[nH]ccc12` is recorded as “inhibited” (Balb/c mice, oxazolone colitis, colonic mucosa; oral, 30 mg/kg twice daily; relative to: vehicle).
Under “delta delta Ct”, `COc1ccc(-c2cncc(N[C@@H](C)c3cccc(NC(=O)c4cncc(C)c4)c3)n2)cc1OC` is recorded as 0.522 (refers to: rno-miR-211-5p; rat SU5416/hypoxia model, lung; dose not given, unit not given; relative to: SU5416/hypoxia vehicle).
For `CC(C)c1ncc(C(=O)N2CCOC3(CCN(Cc4ccc(F)c(CCNC[C@H](O)c5ccc(O)c6[nH]c(=O)sc56)c4)CC3)C2)s1`, “placebo-corrected trough FEV1 change” read 29 mL (COPD patients; inhaled, 50 µg twice daily, 12 h postdose, dosing day 1; relative to: baseline).
For `C[C@@H](O)CCOC(=O)C[C@@H](C)O`, the metabolite level was -3.87 ± 0.68 µmol/L (refers to: C12:1 acylcarnitine; human, plasma; 60 min, log2-transformed values).
`C[C@H]1O[C@@H](O[C@H]2CC[C@@]3(C)[C@@H](CC[C@]4(C)[C@@H]3C=C[C@]35OC[C@@]6(CCC(C)(C)C[C@H]63)[C@@H](O)C[C@]54C)[C@]2(C)CO)[C@H](O)[C@@H](O[C@@H]2O[C@H](CO)[C@@H](O)[C@H](O)[C@H]2O)[C@H]1O` has a protein level of 1.77 and 1.07 and 1.19 (Western blot, refers to: Deptor; chronic-plus-binge ethanol-fed mice, liver; dose not given, dose level -H, unit not given; relative to: β-actin).
`C[C@H]1C[C@H]2CSC(N)=N[C@@]2(c2nc(NC(=O)c3ccc(OC(F)F)cn3)cs2)CO1` — result for “percent change from baseline”: -35.4% (refers to: total Aβ; healthy adults, plasma; 5 mg once daily, day 4; relative to: placebo).
For `c1ccc(-c2n[nH]cc2-c2ccnc3ccccc23)nc1`, “log2 fold change” read 1.5 (kinase binding, competitor, MIB/MS competition, refers to: CDC7; Candida albicans cell lysate; 10 µM; relative to: DMSO).
With `CC(C)NCC(O)c1ccc(O)c(O)c1` (centres unmarked) the sarcomere length was 1.65 µm (ventricular cardiomyocytes, C57BL/6 mouse; dose not given, 0.592 s).
`N#Cc1ccn2c(-c3ccncc3)c(-c3ccc(F)cc3)nc2c1` — result for “log2 fold change”: 0.172 (kinase binding, competitor, MIB/MS competition, refers to: TPK2; Candida albicans cell lysate; 100 nM; relative to: DMSO).
Under “median cold water VAS change”, `N=C(N)NCCC[C@H](NC(=O)[C@H](CCCNC(=N)N)NC(=O)[C@H](CCCCN)NC(=O)[C@H](CCC(N)=O)NC(=O)[C@H](CCCCN)NC(=O)[C@H](Cc1ccc(O)cc1)NC(=O)[C@@H](N)CCCCN)C(=O)N[C@@H](CO)C(=O)N[C@@H](Cc1ccc(O)cc1)C(=O)N[C@@H](CCCCN)C(=O)O` is recorded as -16.5 mm (dentin hypersensitivity patients; 5 µg/tooth single, day 22; relative to: baseline).

Excerpt of the above:
The AUC(0-t) of `CN(C(=O)n1cnc(-c2ccc[n+]([O-])c2)c1)C1CCCCC1` is reported as 575 ng·h/mL (refers to: OEA; human, plasma; 2.5 mg single dose).
`CC1(C)CCC(CN2CCN(c3ccc(C(=O)NS(=O)(=O)c4ccc(NCC5CCOCC5)c([N+](=O)[O-])c4)c(Oc4cnc5[nH]ccc5c4)c3)CC2)=C(c2ccc(Cl)cc2)C1` gave an EC50 of 873 nM (cell killing, flow cytometry PI exclusion; canine blood CD21+ B cells, dog 39; 24 h).
`N#Cc1ccc2c(c1)[C@H]1CCCN(C(=O)c3ccc4[nH]cnc4c3)[C@H]1C2` has a plasma level of 11.6 pmol/L (refers to: ACTH; human, Phase II trial; oral, 20 mg once daily, last treatment, HPA axis, mean).
`O=C1CCc2ccc(OCCCCN3CCN(c4cccc(Cl)c4Cl)CC3)cc2N1` — result for “discontinuation or switching rate”: 22% (patients; dose not given, 3 months, CYP2D6 IM and NM).
With `COc1cc(O)c(CC=C(C)C)c(O)c1C(=O)/C=C/c1ccc(O)cc1` the blood glucose was 133 mg/dL (glucose tolerance test; male Tac:SW conventional mice, high-fat diet; in diet, 60 mg/kg/day, 10 weeks, baseline).
